# Published values collected from several papers.
# ± gives the spread as reported.
Structure (SMILES),test,test system,conditions,Tmax
O=C(Nc1ccc(OC(F)(F)F)cc1)NC1CCN(C(=O)C2CC2)CC1,,"Sprague-Dawley rat, male, whole blood","oral, 0.1 mg/kg",4 h
O=C(O)CN1CCN(CC(=O)O)CCN(C(CCC(=O)NCc2ccc(NC(=S)NCCNC(=O)CCCc3ccc(I)cc3)cc2)C(=O)O)CC1 (centres unmarked),dynamic PET/CT,"Sprague-Dawley rats female, liver","intracisternal infusion, median",1.71 h
OC1(C(F)(F)F)CCN(c2nc(Nc3ccnc(C(F)(F)F)c3)nc(-c3cccc(C(F)(F)F)n3)n2)C1 (centres unmarked),,"Sprague-Dawley rat, both sexes, plasma","oral gavage, 5 mg/kg, day 1",7.33 ± 3.93 h
CCCC[C@H](OC(C)=O)c1ccccc1C(=O)O,,"Sprague-Dawley rats, both sexes, whole blood","intravenous, 20 mg/kg single dose",0.017 h
COc1ccc([C@@H]2CC(=O)c3c(O)cc(O[C@@H]4O[C@H](CO)[C@@H](O)[C@H](O)[C@H]4O[C@@H]4O[C@@H](C)[C@H](O)[C@@H](O)[C@H]4O)cc3O2)cc1O,LC-MS/MS,"Sprague-Dawley rat, male, obese, plasma","oral, 100 mg/kg",2.33 ± 1.53 h
C=C(NC(=O)c1csc(-c2nc3c(cc2O)-c2nc(cs2)C(=O)NC(C(C)O)C(=O)NC(=C(C)OC)c2nc(cs2)C(=O)NC2c4nc(cs4)C(=O)NC(COC(=O)c4c5c6c(cccc6n4O)COC(=O)C(OC4CC(C)(O)C(N(C)C)C(C)O4)C2OC5)c2nc-3cs2)n1)C(N)=O (centres unmarked),,"Sprague-Dawley rat, both sexes, plasma","intravenous infusion, 6 mg/kg, multiple doses, day 7",0.09 h
O=C(O)/C=C\c1cc2ccoc2cc1O[C@@H]1O[C@H](CO)[C@@H](O)[C@H](O)[C@H]1O,,"rat, plasma","oral, 500 mg/kg Eu + 217 mg/kg Pc extract, dosed as combined Eu and Pc extracts",2.83 ± 1.89 h
Cc1cc(-c2ccc(NC(=S)Nc3ccc(CNC(=O)CCC(C(=O)O)N4CCN(CC(=O)O)CCN(CC(=O)O)CC4)cc3)c(C)c2)ccc1/N=N/c1ccc2c(S(=O)(=O)O)cc(S(=O)(=O)O)c(N)c2c1O (centres unmarked),dynamic PET/CT,"Sprague-Dawley rats female, liver","intracisternal infusion, median",1.83 h

# Excerpt of the above:
Structure (SMILES),test,test system,conditions,Tmax
O=C(O)/C=C\c1cc2ccoc2cc1O[C@@H]1O[C@H](CO)[C@@H](O)[C@H](O)[C@H]1O,,"rat, plasma","oral, 500 mg/kg Eu + 217 mg/kg Pc extract, dosed as combined Eu and Pc extracts",2.83 ± 1.89 h
